Measured values gathered from unrelated publications.
Numbered parts are unrelated; each lists some results of a single study. Positions count from the first letter of the parent shown.

Set 1
Target: RING finger protein unkempt homolog, zinc fingers 1-6, GST-SBP tag (UNK, Homo sapiens, UniProt Q9C0B0, residues 30-357)
Technique: RNA Bind-n-Seq
Molecule type: RNA
Medium: in vitro
Concentration: not given
Notes: RNA with constant flanks, human and mouse sites, ends assumed
Relative to: input RNA pool
Direction: higher = stronger binding
| Sequence | bound/input enrichment |
| --- | --- |
| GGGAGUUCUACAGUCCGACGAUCGUUCCUUUCGGCAGUGCUGCGUGCCCAGAUUCUUAAUAACAUUAAGUCUGUUACUGUGUAUAGCAAUGGUUUAUAUUUCAUUAUGCUACUAAAGGUUCAUCUUUUCUACAUUAAAAAUAUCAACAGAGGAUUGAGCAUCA | 0.222 ratio |
| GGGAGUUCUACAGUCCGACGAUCAUUUUAGCUCUGAUCUCACUCUUCAGUAUUCCUGUUAUAUAUGAACGGCAUCAGGCGCAGAUAGAUCAUUAUCUAGGACUUGCAAACAAGAGCGUUAAGGAUGCCAUGGCCAAAAUCCAACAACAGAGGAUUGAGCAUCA | 0.4 ratio |
| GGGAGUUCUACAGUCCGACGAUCGCAAAGGAUGAUGAGGCGGCAGCUGUUGCCCUUUCCUCUCUCGUUCAUGCUUUGGAUGAGUUAAACAUGGUCGCCAUCGUCCGAUAUGCUUAUGACAAAAGAUCUAAUCCUCAAGUUGGUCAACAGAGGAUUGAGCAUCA | 0.204 ratio |
| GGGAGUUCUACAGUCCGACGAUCAGCAUUUGUCUUGAUAUUCUAAGAUCACAGUGGUCUCCUGCUUUAACUAUUUCUAAAGUUCUUUUAUCCAUUUGUUCACUGCUAUGUGAUCCAAACCCAGACGACCCCCUAGUGCCAGAGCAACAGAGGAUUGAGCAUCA | 0.906 ratio |
| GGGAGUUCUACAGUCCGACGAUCGUAAAAAAGGACAAUAUUCUUGUUCGAUCUUUCAAAGAUGGAAAAUUUACUUCAGUUCCAAGAAAAGAUGUCCAUGAAAUUACUAGUGACACUGCACCAAAGCCUGAUGCUGUUUUAAAGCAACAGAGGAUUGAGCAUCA | 0.302 ratio |
| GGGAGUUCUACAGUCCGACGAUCUGGACUGAUCUCUUUGACAAUAAGGUUUUGACAUUUGCAUAUAAACAUGCAUUAGUAAAUAAAAUGUAUGGGAGAGGCCUUAAAUUUGCAACUAAACUUGUGGAAGAAAAACCAACAAAACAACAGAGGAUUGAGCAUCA | 0.242 ratio |
| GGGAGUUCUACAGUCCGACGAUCAAUGAAGCCUAUUUUGAUGUUGUUGAAGAAAUAGACGCAAUUAUAGAUAAAUCAGGAUCUACAGUCUUUGCAGAAAUUCAGGGGGUCAUUGAUGCUUGCAUUAAACUAUCUGGAAUGCCUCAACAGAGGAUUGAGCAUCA | 0.472 ratio |
| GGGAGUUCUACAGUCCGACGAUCGUGUUGCUGGACCUUCAGAGUUACGACAGUGAUGUGCAAGGCAAACAAGAAACUGACAGCCUUUUGAACAAAAUAGAAGAAAAAAUGAAAGAAUUGAGUCAAGACAGUACUGGGCGGGUGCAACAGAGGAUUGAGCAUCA | 2.09 ratio |
| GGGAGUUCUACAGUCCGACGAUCUAUACUGGCAUUGAUCAUCACUGGAAAGACCCAGUCUUUGCCACUUGUGGACAGCAAGUAGACAUUUGGGAUGAACAAAGAACCAGCCCUGUGUGCUCAAUGAACUGGGGAUUUGACAGCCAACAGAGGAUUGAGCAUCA | 0.22 ratio |
| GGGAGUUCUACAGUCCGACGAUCCAAUUUGAAGCUCCUUCUCCAUCACACAGUAGCAUUAUUGAUUCUACAGAAUACAGCCAACCUCCAGGUUUCAGUGGGACCUCUCAGACAAAGAAACAGCCUUGGUAUAACAGCACAUUACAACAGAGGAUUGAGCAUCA | 0.792 ratio |
| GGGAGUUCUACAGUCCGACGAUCGAUGACAUGUCUGAGCCUGAAUUCAAAAGAGGAGGGACAAGGGCAACCGCGGGGCCCCGAUUAGGUUGGUCUCGAGACUUGGGACAGUCUAACAGUGACUUGGAUAUGCCAUUUGCCAAGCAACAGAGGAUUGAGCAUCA | 0.165 ratio |

Set 2
Target: UBE2V2 UBC core domain (UniProt Q15819)
Technique: yeast two-hybrid
Medium: yeast
Notes: mostly zero background
Relative to: not given
Direction: higher = stronger interaction
B1: RC3H1 RING domain (UniProt Q5TC82); chain QAPQWTDFLSCPICTQTFDETIRKPISLGCGHTVCKMCLNKLHRKACPFDQTTINTDIELL
B2: MKRN1 RING domain (UniProt Q9UHC7); chain FAVQRSKDMVCGICMEVVYEKANPSERRFGILSNCNHTYCLKCIRKWRSAKQFESKIIKSCPECRITSNFVIPSE
B3: SH3RF2 RING domain (UniProt Q8TEC5); chain DDLTLLDLLECPVCFEKLDVTAKVLPCQHTFCKPCLQRVFKAHKELRCPECRTPVFSNIEAL
B4: TRIM43 RING domain (UniProt Q96BQ3); chain FSHAFQKELTCVICLNYLVDPVTICCGHSFCRPCLCLSWEEAQSPANCPACREPSPKMDFKT
B5: DTX4 RING domain (UniProt Q9Y2E6); chain QKVRHPPDEDCTICMERLTAPSGYKGPQPTVKPDLVGKLSRCGHVYHIYCLVAMYNNGNKDGSLQCPTCKTIYGVKTGTQ
B6: TRIM5 RING domain (UniProt Q9C035); chain LREVKLSPEGQKVDHCARHGEKLLLFCQEDGKVICWLCERSQEHRGHHTFLTEEVAREYQVKL
B7: TRIM5 RING domain (UniProt Q9C035); chain ILVNVKEEVTCPICLELLTQPLSLDCGHSFCQACLTANHKKSMLDKGESSCPVCRISYQPENIRP
B8: TRAF5 RING domain (UniProt O00463); chain FVERLEERYKCAFCHSVLHNPHQTGCGHRFCQHCILSLRELNTVPICPVDKEVIKSQEVFK
B9: TRIM40 RING domain (UniProt Q6P9F5); chain LQKDNQEEGVCPICQESLKEAVSTNCGHLFCRVCLTQHVEKASASGVFCCPLCRKPCSEEVLG
Target sequence (chain): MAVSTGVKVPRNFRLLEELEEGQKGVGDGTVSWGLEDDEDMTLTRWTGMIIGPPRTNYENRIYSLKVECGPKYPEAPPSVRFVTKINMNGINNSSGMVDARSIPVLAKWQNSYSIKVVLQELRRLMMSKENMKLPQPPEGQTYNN
| Molecule | lacZ reporter activity |
| --- | --- |
| B1 (RC3H1 RING domain) | 0 |
| B2 (MKRN1 RING domain) | 0 |
| B3 (SH3RF2 RING domain) | 0 |
| DHGAVGQEMCCPICCSEYVKGEVATELPCHHYFHKPCVSIWLQKSGTCPVCRCMFPPPL (PJA1 RING domain (UniProt Q8NG27)) | 0 |
| B4 (TRIM43 RING domain) | 0 |
| QVDKAVFHMQSVKCLKCQEQKRAVLPCQHAALCELCAEGSECPICQPGRAHTLQS (UNK RING domain (UniProt Q9C0B0)) | 0 |
| B5 (DTX4 RING domain) | 0 |
| B6 (TRIM5 RING domain) | 0 |
| B7 (TRIM5 RING domain) | 0 |
| B8 (TRAF5 RING domain) | 0 |
| MPIRALCTICSDFFDHSRDVAAIHCGHTFHLQCLIQWFETAPSRTCPQCRIQVGKRTIIN (TRAIP RING domain (UniProt Q9BWF2)) | 0 |
| FQGDVDEDLICPICSGVLEEPVQAPHCEHAFCNACITQWFSQQQTCPVDRSVVTVAHLRP (RNF41 RING domain (UniProt Q9H4P4)) | 0 |
| B9 (TRIM40 RING domain) | 0 |

Set 3
Target: CCNB2, cyclin fold, Cln2 fusion (human)
Technique: yeast growth competition, sequencing
Medium: yeast
Notes: weak parent motif
Relative to: not given
Direction: higher = stronger binding
Starting sequence: E2F2 docking peptide (human); LPAKRKLDLEGIG; partner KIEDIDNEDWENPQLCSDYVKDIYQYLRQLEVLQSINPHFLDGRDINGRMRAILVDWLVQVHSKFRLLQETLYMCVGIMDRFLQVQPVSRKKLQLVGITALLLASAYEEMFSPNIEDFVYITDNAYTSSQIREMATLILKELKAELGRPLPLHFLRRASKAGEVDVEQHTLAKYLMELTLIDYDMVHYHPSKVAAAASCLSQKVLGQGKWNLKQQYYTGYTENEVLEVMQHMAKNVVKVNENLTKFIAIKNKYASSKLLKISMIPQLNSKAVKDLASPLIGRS
| Change | normalised enrichment score |
| --- | --- |
| G11A | -0.2 |
| R5A | 0.448 |
| D8A | -0.045 |
| K4A | 0.564 |
| R5K L9F | 0.556 |
| R5A L7A | 0.348 |
| R5K | 0.275 |
| K6A | 0.226 |
| L9A | 0.0264 |

Set 4
Target: Histone acetyltransferase KAT6A, winged helix 1, GST fusion (KAT6A, Homo sapiens, UniProt Q92794, residues 1-85)
Technique: protein binding microarray
Molecule type: double-stranded DNA, one strand shown
Medium: in vitro
Concentration: not given
Notes: 8-mer, flanks averaged, mean of 2 arrays, mostly near background
Relative to: not given
Direction: higher = stronger binding
Construct (chain): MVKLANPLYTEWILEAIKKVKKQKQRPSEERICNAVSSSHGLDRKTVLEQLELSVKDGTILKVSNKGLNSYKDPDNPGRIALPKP
| Sequence | E-score |
| --- | --- |
| TGAATACA | -0.141 |
| CTGTCAGA | -0.0184 |
| ACGGGTAA | 0.32 |
| CTAGCGAA | -0.133 |
| CTAGTGGC | 0.0245 |
| ACAGAGTG | -0.19 |
| CTCATCAC | -0.221 |
| ATATGCCA | -0.126 |
| ATCGCAGA | -0.131 |
| CATTGTGA | -0.237 |
| AATAGCGC | 0.24 |
| ATACTCAA | -0.149 |
| CGTAAAAC | 0.162 |
| CATCGGCA | 0.162 |
| ACCCAAGG | 0.00717 |
| ATACTGTG | -0.15 |
| ATTACCAC | -0.132 |
| AGACTGCT | -0.186 |
| AGACTCCA | -0.255 |
| AAGATTAA | -0.136 |
| CTATCGAG | -0.119 |
| AGTTGAGA | -0.241 |
| AGCGACGA | -0.125 |
| TCCCGGGA | 0.402 |

Some of these lines once more (set 3):
| Change | normalised enrichment score |
| --- | --- |
| R5K L9F | 0.556 |
| R5A L7A | 0.348 |
| D8A | -0.045 |
| R5K | 0.275 |
| L9A | 0.0264 |
| K6A | 0.226 |
| R5A | 0.448 |
| K4A | 0.564 |
| G11A | -0.2 |
